Experimental data gathered from unrelated publications.
Lines come from different studies, so protocols differ. Numbers after ± are the reported error.
OPRK1: Kappa-type opioid receptor (OPRK1, Homo sapiens, UniProt P41145)
Sequence of UniProt P41145 (whole entry, unmodified, looked up): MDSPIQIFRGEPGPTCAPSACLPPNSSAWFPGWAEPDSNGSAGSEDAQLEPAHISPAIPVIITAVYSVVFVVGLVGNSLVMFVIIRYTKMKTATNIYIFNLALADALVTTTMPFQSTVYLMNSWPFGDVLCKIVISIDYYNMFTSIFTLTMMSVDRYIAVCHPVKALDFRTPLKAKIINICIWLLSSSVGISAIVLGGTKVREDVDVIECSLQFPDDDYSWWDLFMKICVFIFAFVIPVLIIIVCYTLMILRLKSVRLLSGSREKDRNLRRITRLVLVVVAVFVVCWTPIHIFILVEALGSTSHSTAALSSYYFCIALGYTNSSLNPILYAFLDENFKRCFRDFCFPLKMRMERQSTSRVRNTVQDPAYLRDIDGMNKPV

| SMILES | target | assay | system | setting | measurement | value |
| --- | --- | --- | --- | --- | --- | --- |
| CC[C@@H]1CN2CC[C@]34c5ccccc5N[C@@H]3[C@H](C(=O)OC)[C@H]1C[C@H]24 | OPRK1 | cAMP inhibition, agonist, HitHunter | CHO-K1 | with: forskolin | EC50 | > 10000 nM |
| COc1cc(Nc2ncc(F)c(Nc3ccc4c(n3)NC(=O)C(C)(C)O4)n2)cc(OC)c1OC | OPRK1 | – | – | – | IC50 | > 10000 nM |
| C[C@@H](NC(=O)[C@@H](N)Cc1ccc(O)cc1)C(=O)NCC(=O)N[C@@H](Cc1ccccc1)C(=O)N(C)CCC[C@@]1(c2ccc(F)cc2)OCc2cc(C#N)ccc21 | OPRK1 | – | – | – | IC50 | 302 nM |
| C=CC[N+]12CC[C@]34C(=C(C(=O)OC)[C@@H](C[C@@H]31)/C(=C\C)C2)Nc1ccccc14 (some centres unmarked) | OPRK1 | cAMP inhibition, agonist, HitHunter | CHO-K1 | with: forskolin | EC50 | > 10000 nM |
| C[C@@H]1N=C(c2ccccc2F)c2cc(Br)ccc2-n2cnc(C(=O)O)c21 | OPRK1 | binding | – | – | IC50 | > 10000 nM |
| NC(N)=Nc1ccc2[nH]c3c(c2c1)C[C@@]1(O)[C@H]2Cc4ccc(O)c5c4[C@@]1(CCN2CC1CC1)[C@H]3O5 | OPRK1 | – | – | – | Ki | 0.11 nM |
| Oc1cccc(N2C3CCC2CN(CCc2ccccc2)C3)c1 | OPRK1 | – | – | – | EC50 | > 10000 nM |
| Cc1cccc(C)c1N1C(=O)[C@H](CC2CNc3ccccc32)NC2(CCN(C)CC2)C1=O (some centres unmarked) | OPRK1 | binding | – | – | Ki | > 10000 nM |
| Cc1cc(O)cc(C)c1C[C@H](N)C(=O)N[C@H](C)C(=O)NCC(=O)N[C@@H](Cc1ccc(Cl)cc1)C(=O)N(C)CCC[C@@]1(c2ccc(F)cc2)OCc2cc(C#N)ccc21 | OPRK1 | – | – | – | IC50 | 155 nM |
| C/C=C1/CN2CC[C@]34c5ccccc5N[C@@H]3[C@H](C(=O)OC)[C@H]1C[C@H]24 | OPRK1 | cAMP inhibition, agonist, HitHunter | CHO-K1 | with: forskolin | EC50 | > 10000 nM |
| C[C@@H](NC(=O)[C@@H](N)Cc1ccc(O)cc1)C(=O)NCC(=O)N[C@@H](Cc1ccc(Cl)cc1)C(=O)N(C)CCC[C@@]1(c2ccc(F)cc2)OCc2cc(C#N)ccc21 | OPRK1 | – | – | – | IC50 | 151 nM |
| COC(=O)/C=C/C(=O)N[C@@H]1CC[C@@]2(O)[C@H]3Cc4ccc(O)c5c4[C@@]2(CCN3CC2CC2)[C@H]1O5 | OPRK1 (Homo sapiens, UniProt P41145, E297K) | reversible binding, radioligand saturation binding | N2a membranes | with: [3H]compound | Kd | 10.3 ± 3.39 nM |
| COc1cc(C(=O)N2CC[C@@H](O)[C@@H](N)C2)cc2nc(-c3cc4ccccc4n3CC3CC3)n(C)c12 | OPRK1 | G protein activation, agonist, GTPγS binding | – | – | EC50 | > 100000 nM |
| Oc1cccc(CCN(CCc2ccccc2)CC2CC2)c1 | OPRK1 | beta-arrestin 2 recruitment, partial agonist, PathHunter luminescence | U2OS | 90 min, 37 °C | EC50 | 40 nM |
